Measured values from different studies.
Lines come from different studies, so protocols differ. Numbers after ± are the reported error.
TFEB: Transcription factor EB (TFEB, Homo sapiens, UniProt P19484)
Sequence of UniProt P19484 (whole entry, looked up): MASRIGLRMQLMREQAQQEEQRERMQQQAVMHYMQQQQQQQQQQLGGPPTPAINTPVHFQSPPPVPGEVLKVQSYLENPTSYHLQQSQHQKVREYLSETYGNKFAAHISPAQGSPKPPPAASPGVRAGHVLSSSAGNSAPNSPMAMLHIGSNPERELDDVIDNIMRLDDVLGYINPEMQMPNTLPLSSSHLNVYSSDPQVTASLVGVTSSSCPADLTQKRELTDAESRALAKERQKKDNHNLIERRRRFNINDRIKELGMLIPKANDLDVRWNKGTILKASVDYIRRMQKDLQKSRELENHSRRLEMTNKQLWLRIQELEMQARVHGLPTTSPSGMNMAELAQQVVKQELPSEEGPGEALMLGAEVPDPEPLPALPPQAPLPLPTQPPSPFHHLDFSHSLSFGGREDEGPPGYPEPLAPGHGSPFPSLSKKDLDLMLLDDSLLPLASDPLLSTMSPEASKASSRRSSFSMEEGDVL
Sequence of UniProt O14764 (whole entry, looked up): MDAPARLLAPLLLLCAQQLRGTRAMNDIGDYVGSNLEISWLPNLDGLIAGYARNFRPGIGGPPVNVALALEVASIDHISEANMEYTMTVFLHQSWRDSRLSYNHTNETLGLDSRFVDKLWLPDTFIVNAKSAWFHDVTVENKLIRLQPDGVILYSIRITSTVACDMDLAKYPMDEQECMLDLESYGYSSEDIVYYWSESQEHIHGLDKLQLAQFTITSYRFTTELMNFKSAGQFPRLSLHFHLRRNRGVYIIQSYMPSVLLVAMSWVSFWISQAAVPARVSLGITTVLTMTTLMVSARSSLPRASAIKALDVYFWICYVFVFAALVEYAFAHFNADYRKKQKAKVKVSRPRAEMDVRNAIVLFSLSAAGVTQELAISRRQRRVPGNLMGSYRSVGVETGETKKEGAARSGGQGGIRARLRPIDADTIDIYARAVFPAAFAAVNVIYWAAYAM
Sequence of UniProt P08913 (whole entry, looked up): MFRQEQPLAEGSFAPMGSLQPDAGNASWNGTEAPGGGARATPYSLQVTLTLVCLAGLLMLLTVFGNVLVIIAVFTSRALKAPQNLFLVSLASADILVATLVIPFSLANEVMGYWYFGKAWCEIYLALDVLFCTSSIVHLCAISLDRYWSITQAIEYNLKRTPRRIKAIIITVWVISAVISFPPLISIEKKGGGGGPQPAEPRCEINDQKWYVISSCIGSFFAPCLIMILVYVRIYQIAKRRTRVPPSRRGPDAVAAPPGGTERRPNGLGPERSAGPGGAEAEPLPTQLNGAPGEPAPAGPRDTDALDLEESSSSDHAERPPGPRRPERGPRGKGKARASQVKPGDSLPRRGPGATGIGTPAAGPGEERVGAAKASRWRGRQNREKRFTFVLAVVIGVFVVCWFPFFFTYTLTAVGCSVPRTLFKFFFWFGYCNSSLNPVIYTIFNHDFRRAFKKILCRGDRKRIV
Sequence of UniProt P28472 (whole entry, looked up): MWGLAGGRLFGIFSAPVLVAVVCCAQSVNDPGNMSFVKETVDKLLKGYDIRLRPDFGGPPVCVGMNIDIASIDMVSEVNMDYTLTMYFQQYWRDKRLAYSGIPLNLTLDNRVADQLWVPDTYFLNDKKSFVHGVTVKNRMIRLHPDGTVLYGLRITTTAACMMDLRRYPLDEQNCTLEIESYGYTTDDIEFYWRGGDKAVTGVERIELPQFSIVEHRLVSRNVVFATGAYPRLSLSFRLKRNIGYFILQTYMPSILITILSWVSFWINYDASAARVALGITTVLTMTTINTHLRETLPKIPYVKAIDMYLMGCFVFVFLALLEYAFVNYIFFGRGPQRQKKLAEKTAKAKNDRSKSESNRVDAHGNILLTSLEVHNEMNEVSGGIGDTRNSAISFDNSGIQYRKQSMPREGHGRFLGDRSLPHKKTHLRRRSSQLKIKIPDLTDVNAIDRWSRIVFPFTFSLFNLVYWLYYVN
Sequence of UniProt P02730 (whole entry, looked up): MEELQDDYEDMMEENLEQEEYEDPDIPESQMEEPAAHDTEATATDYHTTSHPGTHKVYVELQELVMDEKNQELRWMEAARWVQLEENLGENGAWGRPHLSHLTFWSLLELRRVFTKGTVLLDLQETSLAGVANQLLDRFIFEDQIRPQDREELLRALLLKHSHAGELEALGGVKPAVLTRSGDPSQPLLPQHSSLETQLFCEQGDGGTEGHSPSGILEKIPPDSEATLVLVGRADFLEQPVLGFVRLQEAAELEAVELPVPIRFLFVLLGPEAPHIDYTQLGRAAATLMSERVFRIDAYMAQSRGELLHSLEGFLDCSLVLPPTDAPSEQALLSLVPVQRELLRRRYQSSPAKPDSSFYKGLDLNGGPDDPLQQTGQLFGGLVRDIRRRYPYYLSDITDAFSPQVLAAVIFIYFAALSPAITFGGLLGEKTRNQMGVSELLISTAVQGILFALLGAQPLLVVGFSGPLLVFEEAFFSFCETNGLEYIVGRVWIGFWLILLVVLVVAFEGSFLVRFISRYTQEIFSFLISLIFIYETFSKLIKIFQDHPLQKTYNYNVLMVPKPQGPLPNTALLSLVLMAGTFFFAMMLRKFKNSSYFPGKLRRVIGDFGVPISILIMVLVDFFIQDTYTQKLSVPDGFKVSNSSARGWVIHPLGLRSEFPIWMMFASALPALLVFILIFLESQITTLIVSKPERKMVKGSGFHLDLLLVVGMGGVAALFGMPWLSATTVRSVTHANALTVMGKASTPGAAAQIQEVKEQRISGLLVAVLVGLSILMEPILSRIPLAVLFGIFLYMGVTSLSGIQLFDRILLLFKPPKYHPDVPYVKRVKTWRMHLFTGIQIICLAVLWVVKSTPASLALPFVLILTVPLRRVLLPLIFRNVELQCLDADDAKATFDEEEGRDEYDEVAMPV
Sequence of UniProt P51582 (whole entry, looked up): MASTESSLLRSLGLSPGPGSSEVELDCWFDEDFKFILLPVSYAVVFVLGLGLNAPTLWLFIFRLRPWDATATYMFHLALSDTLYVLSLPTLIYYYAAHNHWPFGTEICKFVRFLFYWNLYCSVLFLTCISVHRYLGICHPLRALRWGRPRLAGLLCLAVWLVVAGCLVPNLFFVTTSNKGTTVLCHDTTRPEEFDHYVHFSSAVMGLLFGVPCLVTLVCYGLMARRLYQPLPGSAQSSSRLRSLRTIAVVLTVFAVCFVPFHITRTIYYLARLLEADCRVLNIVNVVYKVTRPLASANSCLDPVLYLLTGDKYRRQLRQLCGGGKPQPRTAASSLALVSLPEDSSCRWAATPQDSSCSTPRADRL
Sequence of UniProt P48169 (whole entry, looked up): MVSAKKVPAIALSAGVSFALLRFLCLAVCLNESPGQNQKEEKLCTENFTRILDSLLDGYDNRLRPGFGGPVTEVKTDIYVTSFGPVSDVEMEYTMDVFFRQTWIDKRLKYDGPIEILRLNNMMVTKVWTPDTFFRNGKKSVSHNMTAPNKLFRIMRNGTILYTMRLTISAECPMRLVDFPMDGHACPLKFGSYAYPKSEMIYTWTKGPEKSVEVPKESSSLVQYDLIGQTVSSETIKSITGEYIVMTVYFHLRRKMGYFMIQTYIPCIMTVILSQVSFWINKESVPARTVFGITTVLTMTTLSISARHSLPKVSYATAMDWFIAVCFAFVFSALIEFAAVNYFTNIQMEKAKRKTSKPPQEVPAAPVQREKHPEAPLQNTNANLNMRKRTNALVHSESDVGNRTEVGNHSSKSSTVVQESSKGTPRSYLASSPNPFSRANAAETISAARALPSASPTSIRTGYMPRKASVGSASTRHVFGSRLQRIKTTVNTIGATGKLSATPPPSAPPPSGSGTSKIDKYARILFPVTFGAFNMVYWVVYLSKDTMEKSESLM
Sequence of UniProt Q8BZP8 (whole entry, looked up): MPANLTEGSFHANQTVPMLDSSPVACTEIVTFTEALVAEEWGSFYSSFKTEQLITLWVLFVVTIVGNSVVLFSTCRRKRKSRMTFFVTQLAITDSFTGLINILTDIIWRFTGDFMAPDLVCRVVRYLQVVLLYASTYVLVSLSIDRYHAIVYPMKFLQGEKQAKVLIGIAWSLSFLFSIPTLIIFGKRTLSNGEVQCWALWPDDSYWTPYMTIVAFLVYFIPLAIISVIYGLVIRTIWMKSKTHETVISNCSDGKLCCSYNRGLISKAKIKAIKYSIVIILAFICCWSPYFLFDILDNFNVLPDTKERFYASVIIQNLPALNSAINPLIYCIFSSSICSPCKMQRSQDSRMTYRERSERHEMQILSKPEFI
Sequence of UniProt O88703 (whole entry, looked up): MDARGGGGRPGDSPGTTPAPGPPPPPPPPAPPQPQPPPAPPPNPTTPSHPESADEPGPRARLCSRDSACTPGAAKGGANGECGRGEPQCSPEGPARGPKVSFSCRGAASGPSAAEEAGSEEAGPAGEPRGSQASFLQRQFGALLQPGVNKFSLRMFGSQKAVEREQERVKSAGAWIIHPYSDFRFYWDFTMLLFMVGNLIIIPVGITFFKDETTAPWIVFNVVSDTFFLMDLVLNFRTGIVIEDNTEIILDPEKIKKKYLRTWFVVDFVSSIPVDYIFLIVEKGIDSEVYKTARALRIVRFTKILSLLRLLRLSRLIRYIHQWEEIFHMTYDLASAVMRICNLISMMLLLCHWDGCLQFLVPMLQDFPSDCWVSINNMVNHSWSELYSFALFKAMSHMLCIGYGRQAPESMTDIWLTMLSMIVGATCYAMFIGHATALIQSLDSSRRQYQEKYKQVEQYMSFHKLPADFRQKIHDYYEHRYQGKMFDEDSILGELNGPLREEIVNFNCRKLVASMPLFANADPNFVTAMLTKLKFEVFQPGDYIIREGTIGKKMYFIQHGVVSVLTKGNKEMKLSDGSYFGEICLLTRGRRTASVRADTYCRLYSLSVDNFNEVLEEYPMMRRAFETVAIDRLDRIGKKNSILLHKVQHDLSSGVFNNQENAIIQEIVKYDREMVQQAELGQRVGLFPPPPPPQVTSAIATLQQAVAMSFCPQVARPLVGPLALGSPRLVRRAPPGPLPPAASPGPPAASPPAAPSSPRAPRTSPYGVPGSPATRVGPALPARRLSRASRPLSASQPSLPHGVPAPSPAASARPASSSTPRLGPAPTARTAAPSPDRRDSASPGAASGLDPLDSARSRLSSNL

Substance	target	test	system	conditions	how to read	quantity	result
O=C(NCc1ccc(F)cc1)N1CCN2C(=O)OC(c3ccccc3)(c3ccccc3)C2C1 (stereo not shown)	Neuropeptide S receptor (Mus musculus, UniProt Q8BZP8)	calcium mobilization, antagonist	HEK293 expressing mouse NPSR	24 min preincubation, 37 °C, added: 30 nM PWT1-NPS		Kb	10.2 nM
CCCCN1C(=O)C(C=CC=CC=C2C(=O)N(c3ccc(S(=O)(=O)O)cc3)N=C2C)C(=O)N(CCCC)C1=O	SLC4A1 (Homo sapiens, UniProt P02730)	chloride exchange, 36Cl flux, item: inward-facing iodide-loaded transporter		0 °C, Dixon plot, initial binding		Ki	1700 nM
CCCCC/C=C\C/C=C\C/C=C\C/C=C\CCCC(=O)OC(CO)CO	CNR2 (Homo sapiens, UniProt P34972, Q63R)	β-arrestin 2 recruitment, agonist, BRET	HEK293 coexpressing GRK6			EC50	1480 nM
C[C@@]1(O)CC[C@@]2(C)[C@@H](CC[C@@H]3[C@@H]2CC[C@]2(C)[C@@H](c4cc(CO)on4)CC[C@@H]32)C1	Gamma-aminobutyric acid receptor subunit alpha-4/beta3/delta (Homo sapiens, UniProt O14764+P28472+P48169)	GABA current potentiation, positive modulator, two-electrode voltage clamp	Xenopus laevis oocytes	30 s preincubation, added: GABA EC10		EC50	1040 ± 450 nM
CCCCCCCCCCCCCCCC[N+](C)(C)C	TFEB	nuclear translocation, activator, GFP-TFEB imaging	AML12	2 h	baseline: Torin 1	AC50	6620 nM
CCCCCCCCCCCCCC(=O)O[C@@H]1[C@@H](C)[C@@]2(O)[C@@H](C=C(CO)C[C@]3(O)C(=O)C(C)=C[C@@H]23)[C@H]2C(C)(C)[C@]12OC(C)=O	PKCθ rat	kinase activity		1 µM, immunoprecipitated enzyme, added: histone H1 substrate	baseline: untreated	remaining activity	173 ± 30%
cGMP	Potassium/sodium hyperpolarization-activated cyclic nucleotide-gated channel 2, C-terminal region (Hcn2, Mus musculus, UniProt O88703)	binding, isothermal titration calorimetry		C-linker/CNBD tetramer, site 2		Kd	6130 nM
anthraquinone-neomycin	intramolecular DNA triplex hairpin	thiazole orange displacement, fluorescent intercalator displacement		pH 6.8, KCl 150 mM, added: thiazole orange 700 nM		AC50	713 ± 123 nM
CCCN(C/C=C/I)C1CCc2ccc(O)cc2C1 (stereo not shown)	ADRA2A (Homo sapiens, UniProt P08913)	G protein activation, agonist, BRET, item: Gαi2	HEK293T, transfected	Emax below 50%		EC50	120 ± 6 nM
BP(=O)(OC[C@H]1O[C@@H](n2ccc(=O)[nH]c2=O)[C@H](O)[C@@H]1O)OP(=O)(O)OP(=O)(O)OP(=O)(O)OC[C@H]1O[C@@H](n2ccc(=O)[nH]c2=O)[C@H](O)[C@@H]1O (stereo partly shown)	P2Y purinoceptor 4 (P2RY4, Homo sapiens, UniProt P51582)	calcium signal, agonist, fluorescence				EC50	16800 nM
CC[C@@H](C(=O)[C@@H](C)[C@@H](O)[C@H](C)[C@@H]1O[C@@H]([C@@H](CC)C(=O)O)CC[C@@H]1C)[C@H]1O[C@]2(C=C[C@@H](O)[C@]3(CC[C@@](C)([C@H]4CC[C@](O)(CC)[C@H](C)O4)O3)O2)[C@H](C)C[C@@H]1C	TFEB	nuclear translocation, activator, GFP-TFEB imaging	AML12	2 h	baseline: Torin 1	AC50	2640 nM
c1ccc(CCN2CCCCC2)cc1	serotonin receptors, rat	binding	rat cerebral cortex	added: [3H]LSD 5 nM		Ki	> 10000 nM
COc1ccc(CC2=[N+](C)CCc3cc(OC)c(O)cc32)cc1O	Papaver glaucum DRR	enzyme activity, substrate, LC-MS product formation	Papaver glaucum	added: NADPH 500 µM		substrate inhibition constant	109 ± 23.4 µM

Repeated from above:
Substance	target	test	system	conditions	how to read	quantity	result
anthraquinone-neomycin	intramolecular DNA triplex hairpin	thiazole orange displacement, fluorescent intercalator displacement		pH 6.8, KCl 150 mM, added: thiazole orange 700 nM		AC50	713 ± 123 nM
CCCN(C/C=C/I)C1CCc2ccc(O)cc2C1 (stereo not shown)	ADRA2A (Homo sapiens, UniProt P08913)	G protein activation, agonist, BRET, item: Gαi2	HEK293T, transfected	Emax below 50%		EC50	120 ± 6 nM
